Experimental data from different studies.
Numbered parts are unrelated; each lists some results of a single study. Positions count from the first letter of the parent shown.

Study 1
Target: Prothrombin, mature alpha-thrombin (F2, Homo sapiens, UniProt P00734)
Technique: aptamer microarray, sandwich
Form: DNA with 2'F-ANA
Medium: in vitro
Concentration: 200 nM
Setting: whole 15-mer aptamer, many near background
Added: Cy3 exosite-II aptamer, 400 nM
Reading: higher = stronger binding
Sequence: GGTTGGTGTGGTTGG
`2'F-ANA at 1 2 3 4 6 9 11 12 15`: “mean fluorescence intensity” 214 a.u.
`2'F-ANA at 3 4 5 7 8 9 10 12 13 14 15` — result for “mean fluorescence intensity”: 48.2 a.u.
`2'F-ANA at 1 2 3 5 10 11 13 15` — result for “mean fluorescence intensity”: 97.8 a.u.
`2'F-ANA at 2 5 6 7 9 11 14 15` — result for “mean fluorescence intensity”: 48.8 a.u.
For `2'F-ANA at 2 3 4 6 8 9 10 12 15`, “mean fluorescence intensity” read 243 a.u.
`2'F-ANA at 1 3 4 5 7 8 9 13` — result for “mean fluorescence intensity”: 60.2 a.u.
`2'F-ANA at 4 5 6 9 12 14 15` — result for “mean fluorescence intensity”: 52.5 a.u.
`2'F-ANA at 1 2 4 5 6 7 8 9 11 12` — result for “mean fluorescence intensity”: 95.9 a.u.

Study 2
Target: TAR DNA-binding protein 43, full length, His tag (TARDBP, Homo sapiens, UniProt Q13148, residues 1-414)
Technique: RNA Bind-n-Seq
Form: RNA
Medium: in vitro
Concentration: 20 nM
Setting: 6-mer, flanks averaged, single round
Added: 150 mM KCl
Relative to: input library
Reading: higher = stronger binding
For `ACGUAU`, “6-mer enrichment (R)” read 0.675.
`GGAUCG`: “6-mer enrichment (R)” 1.56.
For `AGCGUC`, “6-mer enrichment (R)” read 0.732.
`UUCGGG` — result for “6-mer enrichment (R)”: 1.65.
For `UGGAGC`, “6-mer enrichment (R)” read 1.35.
`GUACAC`: “6-mer enrichment (R)” 0.707.
Under “6-mer enrichment (R)”, `UGAAAG` is recorded as 1.
For `CACGUA`, “6-mer enrichment (R)” read 0.663.

Study 3
Target: CCNE1, cyclin fold, Cln2 fusion (human)
Technique: yeast growth competition, sequencing
Medium: yeast
Setting: strong parent motif
Relative to: not given
Reading: higher = stronger binding
Parent: viral docking peptide; KGVKRKLFAEDSS
Under “normalised enrichment score”, `KGVHRKLFAEDSS [K4H]` is recorded as 3.42.
Under “normalised enrichment score”, `KGVDRKLFAEDSS [K4D]` is recorded as 0.959.
For `KGVYRKLFAEDSS [K4Y]`, “normalised enrichment score” read 3.44.
`KGVKRKLRAEDSS [F8R]`: “normalised enrichment score” 0.132.
Under “normalised enrichment score”, `KGVKQKLFAEDSS [R5Q]` is recorded as 1.15.

Study 4
Target: UBE2D3 UBC core domain (UniProt P61077)
UniProt P61077, sequence (whole entry, looked up): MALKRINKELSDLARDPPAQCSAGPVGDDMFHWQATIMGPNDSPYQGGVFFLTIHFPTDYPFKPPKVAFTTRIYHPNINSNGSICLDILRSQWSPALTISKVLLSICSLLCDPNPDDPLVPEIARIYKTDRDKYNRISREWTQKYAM
Technique: yeast two-hybrid
Medium: yeast
Setting: mostly zero background
Relative to: not given
Reading: higher = stronger interaction
B1: MYCBP2 RING domain (UniProt O75592); chain TSLKQDADDMCMICFTEALSAAPAIQLDCSHIFHLQCCRRVLENRWLGPRITFGFISCPICKNKINHIVLKD
B2: RNF166 RING domain (UniProt Q96A37); chain GDSGLEAQYTCPICLEVYHRPVAIGSCGHTFCGECLQPCLQVPSPLCPLCRLPFDPKKVDK
B3: ANAPC11 RING domain (UniProt Q9NYG5); chain GICRMAFNGCCPDCKVPGDDCPLVWGQCSHCFHMHCILKWLHAQQVQQHCPMCRQEWKFKE
B4: RNF183 RING domain (UniProt Q96D59); chain EQQGRELEAECPVCWNPFNNTFHTPKMLDCCHSFCVECLAHLSLVTPARRRLLCPLCRQPTVLASGQP
B5: TRIM22 RING domain (UniProt Q8IYM9); chain VKVDIEKEVTCPICLELLTEPLSLDCGHSFCQACITAKIKESVIISRGESSCPVCQTRFQPGNLRP
B6: MKRN2 RING domain (UniProt Q9H000); chain FAFQASQDKVCSICMEVILEKASASERRFGILSNCNHTYCLSCIRQWRCAKQFENPIIKSCPECRVISEFVIPSV
B7: TRIM26 RING domain (UniProt Q12899); chain PLRSLEEEVTCSICLDYLRDPVTIDCGHVFCRSCTTDVRPISGSRPVCPLCKKPFKKENIRP
B8: TRIM60 RING domain (UniProt Q495X7); chain ALVNLQEESSCPICLEYLKDPVTINCGHNFCRSCLSVSWKDLDDTFPCPVCRFCFPYKSFRR
For `B1 (MYCBP2 RING domain)`, “lacZ reporter activity” read 0.
`FVKTVEDKYKCEKCHLVLCSPKQTECGHRFCESCMAALLSSSSPKCTACQESIVKDKVF (TRAF3 RING domain (UniProt Q13114))`: “lacZ reporter activity” 0.
`B2 (RNF166 RING domain)` — result for “lacZ reporter activity”: 0.
Under “lacZ reporter activity”, `YCEMGSTFQLCKICAENDKDVKIEPCGHLMCTSCLTAWQESDGQGCPFCRCEIKGTEPII (CBLB RING domain (UniProt Q13191))` is recorded as 0.
Under “lacZ reporter activity”, `B3 (ANAPC11 RING domain)` is recorded as 0.
Under “lacZ reporter activity”, `YPEEVDDDLICHICLQALLDPLDTPCGHTYCTLCLTNFLVEKDFCPMDRKPLVLQHCKK (LNX1 RING domain (UniProt Q8TBB1))` is recorded as 0.
`B4 (RNF183 RING domain)` — result for “lacZ reporter activity”: 0.
`B5 (TRIM22 RING domain)`: “lacZ reporter activity” 0.
`B6 (MKRN2 RING domain)`: “lacZ reporter activity” 0.
`B7 (TRIM26 RING domain)`: “lacZ reporter activity” 0.
`B8 (TRIM60 RING domain)`: “lacZ reporter activity” 0.

For quick reference, copied from above (study 2):
For `CACGUA`, “6-mer enrichment (R)” read 0.663.
`UUCGGG` — result for “6-mer enrichment (R)”: 1.65.
`GUACAC`: “6-mer enrichment (R)” 0.707.
Under “6-mer enrichment (R)”, `UGAAAG` is recorded as 1.
